Measurements of several laboratories.
Protocols differ between the studies behind these lines. Several values in a cell are separate wells, animals, samples, runs or records. ± gives the spread as reported.

Cc1ccc(NS(=O)(=O)c2c(C)[nH]c(C)c2C(=O)N2CCCC2)cc1 — Imax (DRD3 (Homo sapiens, UniProt P35462); β-arrestin recruitment, agonist, PathHunter; relative to: dopamine): 97 ± 12%
CCCCC/C=C\C/C=C\C/C=C\C/C=C\CCCC(=O)NCCc1ccc(O)c(O)c1 — Hill coefficient (Trpv1 (Mus musculus, UniProt Q704Y3); ion current, agonist, whole-cell patch clamp; HEK293): 1.49 ± 0.29
C#CCCCCOc1ccc2c(c1)CCCN2C(=O)CCl — reactivity ratio (Thioredoxin domain-containing protein 12 (TXNDC12, Homo sapiens, UniProt O95881); mass spectrometry profiling; Ramos cell lysate; 100 µM over 10 µM, UniProt O95881; relative to: high over low concentration): 1.02
CN(C)[C@H]1C[C@@]23CC[C@@]4(O2)C(=CC[C@]2(C)[C@@H](c5ccc6ccncc6c5)CC[C@H]24)C=C3[C@@H](O)[C@@H]1O — inhibition (ATM (Homo sapiens, UniProt Q13315); ATP probe labelling, inhibitor, KiNativ profiling; 1 µM): -16.8%
CC(C)CC(O)(CC(C)C)c1cn(C(=O)N2CCCC2)nn1 — activity ratio-of-ratios (Triacylglycerol hydrolase DDHD2 (Ddhd2, Mus musculus, UniProt Q80Y98); probe labelling, inhibitor, item: Ddhd2; mouse, brain; i.p., 0.8 mg/kg, 4 h, protein level; relative to: treated over vehicle mice, lower = stronger inhibition): 1.48
CCn1nc(Cl)c2c1-c1cnc(N)c(c1)O[C@H](C)c1cc(F)ccc1-c1nn(C)cc1C2 — selectivity ratio (IRAK1 (Homo sapiens, UniProt P51617); kinase activity, inhibitor; relative to: IC50 IRAK1 over IC50 ALK): 361 fold
Cc1sc2c(c1C)C(c1ccc(Cl)cc1)=NC(CC(=O)OC(C)(C)C)c1nnc(C)n1-2 (stereo not drawn) — inhibition (AGTR1 (Homo sapiens, UniProt P30556); ligand displacement, radioligand; 1 µM): 0%
CC(C)[C@H]1NC(=O)C[C@H]2/C=C/CCSSC[C@@H](NC1=O)C(=O)N[C@H](Cc1cccc3ccccc13)C(=O)NCC(=O)O2 — inhibition (STK38L (Homo sapiens, UniProt Q9Y2H1); enzyme activity, inhibitor; 10 µM): -3.5%
O=C1NC(=O)c2c1c1cc(F)c[n+]3c1c1c2c2cc(O)ccc2[n]1[Ru-4]312([N]=C=S)[S+]3CC[S+]1CC[S+]2CC3 (stereo not drawn) — remaining activity (SGK2 (Homo sapiens, UniProt Q9HBY8); enzyme activity; 100 nM, human enzyme, with: 10 µM ATP; relative to: untreated): 27%
CC(C)(C)C(=O)OCOP(=O)(OCOC(=O)C(C)(C)C)C1CCCN(O)C1=O (stereo not drawn) — log TGI (HT-29): -5.07 log M
CCCC[C@H]1CNCCN1C[C@@H]1CCCN1C[C@@H](Cc1ccc2ccccc2c1)N1CCN(CCCC2CCCC2)[C@H](Cc2ccc(O)cc2)C1 — remaining binding (Oprd1 (Rattus norvegicus, UniProt P33533); radioligand binding; rat brain membranes; 500 nM, pH 7.5, 25 °C, with: 2 nM [3H]DPDPE): 78.2%
COc1ccccc1-c1n[nH]c2nc(NC3CCN(C(=O)Cc4ccc(F)cc4F)CC3)ncc12 — relative abundance (bead binding, competition bead pull-down, item: LINJ.05.0500; Leishmania donovani extract; 10 µM; relative to: vehicle): 0.95
CON(C(=O)c1cn(C)nc1C(F)F)C(C)Cc1c(Cl)cc(Cl)cc1Cl (stereo not drawn) — reaction velocity (SDHD/SDHC/SDHB (Sus scrofa, UniProt A5GZW8+D0VWV4+Q007T0); enzyme activity, inhibitor, DCIP reduction; pig; 1 µM, with: DCIP 10 µM): 0.00127 µM/s and 0.00107 µM/s
COc1ccccc1-c1n[nH]c2nc(N[C@H]3CC[C@H](NS(=O)(=O)CC(C)C)CC3)ncc12 — relative abundance (bead binding, competition bead pull-down, item: LINJ.09.0270; Leishmania donovani extract; 10 µM; relative to: vehicle): 0.46
O=C1NC2(CC2)COc2ncc(F)cc2[C@H]2COCCN2c2ccn3ncc1c3n2 — serum triglycerides (Sprague-Dawley rat, male, serum; oral, 5 mg/kg/day, end of treatment, 4-week subacute toxicity): 0.35 ± 0.13 mmol/L
CC[C@H](C)[C@H](NC(=O)[C@H](CO)NC(=O)[C@H](Cc1ccc(O)cc1)NC(=O)[C@H](Cc1ccc(O)cc1)NC(=O)[C@H](CC(N)=O)NC(=O)CNC(=O)[C@H](CO)NC(=O)[C@H](Cc1ccc(O)cc1)NC(=O)[C@H](CO)NC(=O)[C@H](CO)NC(=O)[C@H](CC(N)=O)NC(=O)COCCOCCNC(=O)CN1CCN(CC(=O)O)CCN(CC(=O)O)CCN(CC(=O)O)CC1)C(=O)N[C@@H](CC(C)C)C(N)=O [copper-64 labelled] — tissue uptake (dynamic PET; KPC mouse Ptf1a-CreER tdTomato, pancreas; intravenous, 4.6 MBq/mouse, 17.5 min, 84 d after tamoxifen): 12.8 %ID/mL
N[C@H](C(=O)N1CCCC1)C1CCN(c2nccc3c(-c4ncc(Cl)cc4Cl)cccc23)CC1 — inhibition (Androgen receptor (AR, Homo sapiens, UniProt P10275); ligand displacement, radioligand; 10 µM): 5%
CS(C)(=O)=Nc1ccc(-c2ccc(-c3nc4cc(O[C@@H]5CO[C@H]6[C@@H]5OC[C@H]6O)[nH]c4cc3F)cc2)cc1 — inhibition (SGK1 (Homo sapiens, UniProt O00141); enzyme activity, inhibitor; 10 µM): -16%

A few entries again:
O=C1NC2(CC2)COc2ncc(F)cc2[C@H]2COCCN2c2ccn3ncc1c3n2 — serum triglycerides (Sprague-Dawley rat, male, serum; oral, 5 mg/kg/day, end of treatment, 4-week subacute toxicity): 0.35 ± 0.13 mmol/L
CC(C)CC(O)(CC(C)C)c1cn(C(=O)N2CCCC2)nn1 — activity ratio-of-ratios (Triacylglycerol hydrolase DDHD2 (Ddhd2, Mus musculus, UniProt Q80Y98); probe labelling, inhibitor, item: Ddhd2; mouse, brain; i.p., 0.8 mg/kg, 4 h, protein level; relative to: treated over vehicle mice, lower = stronger inhibition): 1.48
